# Published values from different studies.
# Each line is one published result; not all experiments were run side by side.
SMILES,species,sample,route,dose,time,tracer uptake [%ID/g]
CN(Cc1ccccc1)C(=O)CN1CCN(CC(=O)[O-])CCN(Cc2cccc(C(=O)[O-])n2)CC1.[44Sc+3],mouse,bone,intravenous,,1 h,0.49
CC(C(=O)O)n1nc(Cn2cc3cc(OCC[18F])c(Cl)cc3n2)c2ccccc2c1=O (racemic),rat,muscle,,,5 min,0.06
[123I]c1ccc2nc(-c3ccc(-n4ccnn4)nc3)cn2c1,male Wistar rat,kidney,intravenous,4 MBq,5 min,2.29
CN(Cc1ccccc1)C(=O)CN1CCN(CC(=O)[O-])CCN(CC(=O)N(C)Cc2ccccc2)CC1.[18F-].[Sc+3],mouse,liver,intravenous,,1 h,0.62
CN(O)C(=O)CCC(=O)NCCCN(CCCCN(CCCNC(=O)CCC(=O)N(C)O)C(=O)CCC(=O)N(C)O)C(=O)CCC(=O)N(C)O.[89Zr],mouse,bone,,,1 h,0.12
CN([O-])C(=O)CN1CCN(CC(=O)N(C)[O-])CCN(Cc2ccccn2)CC1.[89Zr+4],mouse,muscle,intravenous,,4 h,0.69
COc1ccc2c(c1)C(C)(C)C(/C=C/C1=C(Oc3ccc(C(=O)NCCCCOc4cc(CN(Cc5ccccn5)Cc5ccccn5)cc(CN(Cc5ccccn5)Cc5ccccn5)c4)cc3)C(=C/C=C3/N(CCCCS(=O)(=O)[O-])c4ccc(OC)cc4C3(C)C)CCC1)=[N+]2CCCCS(=O)(=O)[O-].O=[N+]([O-])[O-].O=[N+]([O-])[O-].[99Tc+].[C-]#[O+].[C-]#[O+].[C-]#[O+].[Zn+2],mouse,pancreas,,,12 h,0.72
O=C([O-])CN1CCN(CC(=O)[O-])CCN(Cc2cccc(C(=O)[O-])n2)CC1.[177Lu+3],mouse,kidney,intravenous,,1 h,7.14
CC(=O)N([O-])CCCCCNC(=O)CCC(=O)N([O-])CCCCCNC(=O)CCC(=O)N([O-])CCCCCN.[89Zr+4],mouse,brain,,,1 h,0.04

# A few entries again:
SMILES,species,sample,route,dose,time,tracer uptake [%ID/g]
CC(C(=O)O)n1nc(Cn2cc3cc(OCC[18F])c(Cl)cc3n2)c2ccccc2c1=O (racemic),rat,muscle,,,5 min,0.06
